Results collected from several papers.
Target: Serine/threonine-protein kinase SIK1 (SIK1, Homo sapiens, UniProt P57059)
UniProt P57059, sequence (whole entry, looked up): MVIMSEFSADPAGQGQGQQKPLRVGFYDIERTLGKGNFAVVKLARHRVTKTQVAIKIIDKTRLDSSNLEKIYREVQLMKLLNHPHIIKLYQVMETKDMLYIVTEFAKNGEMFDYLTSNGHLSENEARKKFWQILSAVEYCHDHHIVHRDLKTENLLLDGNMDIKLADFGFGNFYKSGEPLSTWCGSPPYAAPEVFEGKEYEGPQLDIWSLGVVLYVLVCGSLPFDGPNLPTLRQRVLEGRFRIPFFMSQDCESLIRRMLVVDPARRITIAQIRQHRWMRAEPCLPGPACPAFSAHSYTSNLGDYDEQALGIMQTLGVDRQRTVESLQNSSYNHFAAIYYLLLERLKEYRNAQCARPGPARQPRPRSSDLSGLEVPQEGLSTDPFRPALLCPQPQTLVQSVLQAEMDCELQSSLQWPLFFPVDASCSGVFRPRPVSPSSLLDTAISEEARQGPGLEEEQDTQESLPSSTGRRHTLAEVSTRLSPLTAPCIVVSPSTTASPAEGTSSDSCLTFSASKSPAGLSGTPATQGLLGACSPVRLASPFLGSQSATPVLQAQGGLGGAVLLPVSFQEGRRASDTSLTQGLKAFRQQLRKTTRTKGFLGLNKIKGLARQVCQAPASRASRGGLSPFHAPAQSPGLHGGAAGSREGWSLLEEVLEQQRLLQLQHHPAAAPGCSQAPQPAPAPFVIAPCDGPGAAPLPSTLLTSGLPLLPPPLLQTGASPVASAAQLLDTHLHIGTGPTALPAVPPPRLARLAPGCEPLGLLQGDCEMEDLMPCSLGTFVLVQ

| Structure (SMILES) | assay | conditions | how to read | endpoint | value |
| --- | --- | --- | --- | --- | --- |
| C1=C/COCc2cc(ccc2OCCN2CCCC2)Nc2nccc(n2)-c2cccc(c2)COC/1 |  | 0.1 µM | baseline: DMSO control | remaining binding | 92% |
| O=C(c1ccc(Nc2ncc(Cl)c(-c3cc4ccccc4s3)n2)cc1)N1CCC(N2CCCC2)CC1 | binding, KINOMEscan competition binding | 1 µM | baseline: DMSO control | remaining binding | 97% |
| CNC(=O)[C@@H]1CC[C@@H](n2c(-c3ccc4cnccc4c3)nc3ccc(C(=O)NCc4cccc(C(N)=O)c4)cc32)C1 | KINOMEscan | 1 µM |  | remaining binding | 97% |
| O=C(c1ccc(Nc2nccc(-c3cc4ccccc4s3)n2)cc1)N1CCC(N2CCCC2)CC1 | binding, KINOMEscan competition binding | 1 µM | baseline: DMSO control | remaining binding | 58% |
| C=CC(=O)N1CCC(C(=O)NCC(=O)N2CCN(c3nc(-c4cnc(N)nc4C(F)F)nc(N4CCOCC4)n3)CC2)CC1 | KINOMEscan | 1 µM |  | remaining binding | 89% |
| COc1cc(N2CCN(C)CC2)ccc1Nc1nc(N)n(C(=O)NCc2c(Cl)cccc2Cl)n1 | enzyme activity | 10 µM | baseline: control | remaining activity | 8% |
| O=C(NC1CCC1)c1ccc2nc(-c3cccc(NS(=O)(=O)NCCN4CCCCC4)c3)cn2c1 | enzyme activity | 10 µM |  | remaining activity | 100% |
| COc1cnc(Nc2cccc(S(N)(=O)=O)c2)nc1N1CCN(c2ccccc2)CC1 | KINOMEscan | 1 µM |  | remaining binding | 100% |
| O=C(NCCCN1CCOCC1)c1ccc(Nc2nccc(-c3cc4ccccc4s3)n2)cc1 | binding, KINOMEscan competition binding | 1 µM | baseline: DMSO control | remaining binding | 62% |
| O=C(NCC1CCOCC1)c1n[nH]cc1NC(=O)c1c(F)cccc1F | scanMAX | 1 µM | baseline: untreated | remaining binding | 97% |
| Nc1ncc2c(n1)-c1c([nH]c3ccc(C#CC4CC4)cc13)CCCC2 | scanMAX | 1 µM |  | remaining binding | 90% |
| CCCOc1ccc(OC)c(F)c1C(=O)c1ccc(C(=O)N[C@@H]2CNC[C@H]2NC(=O)c2ccc3[nH]ncc3c2)cc1 | enzyme activity | 10 µM |  | remaining activity | 37% |
| CC/C(=N\NC(=O)NCc1cccc(O)c1)c1ccc(O)c(C)c1O | kinase activity | 0.1 µM |  | inhibition | -0.7% |
| COc1cc(F)ccc1-c1ncnc(Nc2cccc(C[S@](C)(=N)=O)c2)n1 | kinase activity | 10 µM, together with: 10 µM ATP |  | remaining activity | 67% |
| Cc1cc(Nc2cc(N3CCN(C)CC3)nc(Sc3ccc(NC(=O)C4CC4)cc3)n2)[nH]n1 | kinase activity, KinaseProfiler | 0.03 µM, species human | baseline: control | remaining activity | 96% |
| c1cncc(-c2cccc(Nc3nccc(NC4CCCCC4)n3)c2)c1 | KINOMEscan | 10 µM |  | remaining binding | 46% |

Excerpt of the above:
| Structure (SMILES) | assay | conditions | how to read | endpoint | value |
| --- | --- | --- | --- | --- | --- |
| Cc1cc(Nc2cc(N3CCN(C)CC3)nc(Sc3ccc(NC(=O)C4CC4)cc3)n2)[nH]n1 | kinase activity, KinaseProfiler | 0.03 µM, species human | baseline: control | remaining activity | 96% |
